# Assay results from different studies.
# Every numbered part comes from another study and shows a few of its results, in no order. Changes are numbered by the printed parent chain.

# Set 1
# Target: Ras GTPase-activating protein-binding protein 1, full length (G3BP1, Homo sapiens, UniProt Q13283)
# UniProt Q13283, sequence (whole entry, looked up): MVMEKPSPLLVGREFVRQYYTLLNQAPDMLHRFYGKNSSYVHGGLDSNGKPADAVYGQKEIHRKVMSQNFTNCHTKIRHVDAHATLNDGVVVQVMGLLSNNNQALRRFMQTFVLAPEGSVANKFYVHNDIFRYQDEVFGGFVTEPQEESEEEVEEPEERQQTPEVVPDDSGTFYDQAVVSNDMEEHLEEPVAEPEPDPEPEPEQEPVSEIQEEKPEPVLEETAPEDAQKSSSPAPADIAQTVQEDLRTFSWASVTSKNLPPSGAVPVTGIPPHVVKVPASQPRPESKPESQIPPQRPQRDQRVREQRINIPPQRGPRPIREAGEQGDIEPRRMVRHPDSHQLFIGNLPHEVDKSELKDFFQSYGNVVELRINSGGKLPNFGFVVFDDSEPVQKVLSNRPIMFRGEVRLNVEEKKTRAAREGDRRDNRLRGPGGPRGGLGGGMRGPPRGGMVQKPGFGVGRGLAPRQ
# Method: RNA Bind-n-Seq
# Form: RNA
# Medium: in vitro
# Tested at: 200 nM
# Notes: whole 134-nt RNA, ends assumed
# Together with: 150 mM LiCl
# Baseline: input library
# Reading: higher = stronger binding
# Each molecule: 7-deaza-guanosine replaces G
# All sequences stand within: GGGAGUUCUACAGUCCGACGAUC … UGGAAUUCUCGGGUGUCAAGG
Strand,log2 enrichment
UGGCCCUGGUGGCAUGCGGGGAGGAAGAGGUGGCCUCAUGGAUCUUGGUGGUCCCGGUGGAAUGUUCAGAGGUGGCCGUGGUGGAGACAG,0.0673
GUCCUGUGCUACACAUCGUAUGUACCGAAUCGGGGUGGGGAAAAAGGGGUUUUUGGGGAAAGUAUUAUGUUACGCCGUUCGGAUCUGCAC,0.17
UUUCUAGGCAAGAGGAGGAACGACGUAGAAGAGAGGAAGAGAUGAUGAUUCGUCAACGUGAGAUGGAAGAACAAAUGAGGCGCCAAAGAG,0.999
UAACUUUAGAGGAGGAUCUGAUGGAUAUGGCAGUGGACGUGGAUUUGGGGAUGGCUAUAAUGGGUAUGGAGGAGGACCUGGAGGUGGGAA,0.311
CAAGUCCUGUGCUACACAUCGUAUGUACCGAAUCGGGGUGGGGAAAGGGGUGGGGAAAGUAUUAUGUUACGCCGUUCGGAUCUGCACUUC,-0.552
CACAGACAACACGCACCCCCACAGACACAGAGGGAAGGGGUUGGGAUGGGGACAGGGUGCACAGCAGGGCGGGGUAGGACCCCAGCCCCU,-0.0764
CUGUGCUACACAUCGUAUGUACCGAAUCGGCCCCCCCGGCCCCCCCGGGGCCCCCCCGGGGAAAGUAUUAUGUUACGCCGUUCGGAUCUG,0.141
UCCUGUGCUACACAUCGUAUGUACCGAAUCGGAAAAAAAGGGAAAAAAAGGAAAAAAAGGAAAGUAUUAUGUUACGCCGUUCGGAUCUGC,-0.4
UAACUUUAGAGGAGGAUCUGAUGGAUAUGGCAGUGGACAUGGAUUUGGGGAUGGCUAUAAUGGGUAUGGAGGAGGACCUGGAGGUGGCAA,0.0393
UCAAGUCCUGUGCUACACAUCGUAUGUACCGAAUCGGGAAAGGGUUUGGGUGGGAAAGUAUUAUGUUACGCCGUUCGGAUCUGCACUUCC,-0.562
CCUCAAGUCCUGUGCUACACAUCGUAUGUACCGAAUCGGGGUGGUGGGUGGGAAAGUAUUAUGUUACGCCGUUCGGAUCUGCACUUCCAG,0.042

# Set 2
# Target: Phosphate system positive regulatory protein PHO4, full length, GST-tagged (PHO4, Saccharomyces cerevisiae, UniProt P07270, residues 1-312)
# Method: competition protein-binding microarray
# Form: double-stranded DNA, one strand shown
# Medium: in vitro
# Tested at: 2 µM
# Notes: whole 60-bp probe, lowest competitor level
# Together with: Cbf1 competitor, 0.05 µM
# Reading: higher = stronger binding
# All sequences stand within: … GTCTTGATTCGCTTGACGCTGCTG
# Target sequence (chain): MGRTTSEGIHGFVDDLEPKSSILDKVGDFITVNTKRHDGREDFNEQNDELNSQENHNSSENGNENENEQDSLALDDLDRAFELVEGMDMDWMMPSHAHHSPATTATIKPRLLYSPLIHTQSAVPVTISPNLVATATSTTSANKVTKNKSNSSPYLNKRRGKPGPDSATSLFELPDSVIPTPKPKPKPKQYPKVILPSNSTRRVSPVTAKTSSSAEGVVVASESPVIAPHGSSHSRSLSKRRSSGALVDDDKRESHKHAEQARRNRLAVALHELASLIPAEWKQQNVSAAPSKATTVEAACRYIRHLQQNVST
Strand,fluorescence intensity [a.u.]
ACACCAAACCTCTTCCACGTGTTTTTCTTGGTGGAT,19100
ACCATTGTAGTTATCAACGTGAGCCATAATAGGTTC,9820
CGTCCTAGTGATTGCTGAGTGGGTGCCATGAGGAAG,6880
CGTCCTAGTGATTGGCGTGTGGGTGCCATGAGGAAG,8090
ATATGTATTTCATTTCACGTGATGGGCTGGGATGTT,14400
TCCAGAAGAAGAAACGACGTGCCGAGGTCCATTCCA,5710
CTAACGAAGGTTTGTATCGTGGGTGACAAGCCAAGT,7790
GTCAAACTCCAAAGACACGTGCTCCCCTCGGCACCA,18700
CTTCTGTAAATTTGTCTCGTGGGTGGACGCGCCCCG,9740
AAATTACTAAGTTGTCACAAAACTTACCCCGTATGA,2950
GCTGCATAAAACAACCATGTGGAGTTTTTACTGTAT,9390
GTTTCTGATGACCATCACGTGAAGAATTTGATGTCC,14400
AAGCCACTTTTCCATCACGTTTCTTAGCGTTATTCC,12200
TGGCGCTATCTAAATTCATGATGAAACTCGATGGCC,2850
GTCTTGTCTCATTGACCTGTGGGTGTCCCCACTTCA,5250
AAATTACTAAGTTGTCACGGAACTTACCCCGTATGA,3430
ATTGAGAATAGTCATCAGGTGTAATGGAAGCTAATT,4130
ACAAACTTTTAAAGCTTCGTGCTTTGGATCAACGAA,7320
CGTCCTAGTGATTGGCCAGTGGGTGCCATGAGGAAG,6420
CTTCTGTAAATTTGACACGTGTTTTGACGCGCCCCG,17400
TAAGTGAGATGGAGTGGCGTGGAACTGCAGGCTGGT,5080
CTCGTTACATGTTCCAACGTGACTCGAGAAAGCATG,11300
ACCCAAACTGTGTGGAACGTGACGGAATTGCATTTG,13200
CCCCGCTCTTGTTTTCGCGTGCCGATTCTACAATAA,6380
CTTTCCCGATCTTTTCACGTGCTCTTAGCACATTTG,16100

# Set 3
# Target: CCNB2, cyclin fold, Cln2 fusion (human)
# Method: yeast growth competition, sequencing
# Medium: yeast
# Notes: weak parent motif
# Baseline: not given
# Reading: higher = stronger binding
# Starting sequence: RBL2 docking peptide (human); STTRRRLFVENDS; partner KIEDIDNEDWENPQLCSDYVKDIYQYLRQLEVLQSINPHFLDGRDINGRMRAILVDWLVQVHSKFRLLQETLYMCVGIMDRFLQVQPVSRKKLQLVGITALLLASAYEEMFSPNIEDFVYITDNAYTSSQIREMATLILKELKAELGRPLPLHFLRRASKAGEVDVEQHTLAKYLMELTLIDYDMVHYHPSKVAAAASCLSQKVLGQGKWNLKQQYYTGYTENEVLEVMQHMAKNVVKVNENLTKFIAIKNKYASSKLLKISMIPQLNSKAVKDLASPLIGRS
Change,normalised enrichment score
V9G,0.339
R6A,0.422
T3L,0.781
T2G,0.572
S1I,0.25
L7N,-0.155
R6L,0.643
E10H,0.589
S1M,0.151
R4L,-0.338
R5A,-0.156
S13V,0.0267
E10F,0.638

# Set 4
# Target: RNA binding protein fox-1 homolog 2, RRM domain, GST-SBP tag (RBFOX2, Homo sapiens, UniProt O43251-10, residues 100-194)
# Method: RNA Bind-n-Seq
# Form: RNA
# Medium: in vitro
# Tested at: 365 nM
# Notes: natural RNA segment, single round, ends assumed
# Baseline: no-protein control
# Reading: higher = stronger binding
# All sequences stand within: GGGAGUUCUACAGUCCGACGAUC … UGGAAUUCUCGGGUGCCAA
# Residues (chain): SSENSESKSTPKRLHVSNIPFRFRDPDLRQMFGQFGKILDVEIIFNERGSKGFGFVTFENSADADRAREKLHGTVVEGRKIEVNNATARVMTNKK
Strand,RBNS enrichment (R)
GACCCUCUGGGAGGAAGCUGCCACACACAAGGACUCUGGAAGUAUCCAGAUGUGAGCCCAGCCAGGGUCCUAUGGUUCCAAAUCUGAAGAAAAGGUUUUUCACACACUCC,0.407
GCGCCCGCCACUCGGGGCCCCUGCCGCGCAUCCUGCAGCCCGCUUAUGCGUAUGUGCACGGGGCCGCCCGCCUGGACCUGGAGAAGGGACCUACGGACGCCUGGAAGCUG,0.369
AAACUCAGAAGAAAAGCAGGCUUAGCUAAGAGAUUUUCACUAUUAACCUGUUUUUAUUAGAUCAGCGAAGACAGUCAUGCAUCGCUUAAUGAUGGGGAUGCAUUCUGAGA,0.398
CACAUAAAUGUGGCCCUGAUUGUGGAUGAUCUUGAAUGGAAAUAUCUGACCUCAUGCUGCACACACUGUGGAAUUUCUUCAAGGAAGCUGUAGGUCGGUGCAGGAUCCCC,0.619
AGACAGCAUUCCUCGGGAACCCGUGAAACUGGUUCUCUCUCUACCAAAUGGAGUCAUUCUCCUUACUUCUGGCAGAAGGGUCAUAGCUCUCCCAGUAGUAGACCUGUGGU,0.23
AGCACAUUUAAAAUGAGAAACUAAGACCAAUUUCUGUUUUUAAGAGGAAAAAGAAUGAUUGAUGUAUCCUAAGUAUUGUUAUUUGUUGUCUUUUUUUGCUGCCUUGCUUG,4.22
ACUUUUACUUUUUGCAUUGUCCAGACUUCUUUAUUAGAUGGAGAUGUUUCUUUUUCUGUCUUCUAGACUAAAUAGAGUAUCAUCCAAAUAAUGGGGCCUAUGACUUGAAU,0.346
AAGCUAAGUCACCCUGGUGUCAUUCUGUCAUCUGUGCAACUAUUAUUUCCUUUGGGAGUUUCCUCUUCAUGCAUUUUGUUCCUAGGGAAUAAAAAUAGCUGUUAGACCUG,0.393
GUGCCUGGUUUAUUUAACUAAUUAAUACCUCCUCUGUUGAUGAGCUAUUGAGAGUUGCAGUGUUUUACUUUUUAAUACAGUGACUGCACUUGGGACAGACUAUUUGUAGU,0.426
UCUCACCCUAGCCAAAGGUCCUAAGAGGAGACCCGCUGUGAAGUCUGGCCUGCUCUUUGGUACCAGCUGUGACUUUUCAGUUUCUCCUGCUUUGAGGUUGUUCACGAAAC,0.262
AGGACCCAGGAGAGUUCACGGGAGGCUUCAUCAUAUGAAAGGACAAUGUUCUGGGUUGUGCAUGAAAUUGGAUCUGUAGACACUGUGGAAACGUUUGAAAGUGUUUGUUU,3.34
CAAAUCUUGGUCUAUGAGGUCUACACCAAUAACACCCUACUCUGGAAUGGUAACAGAGCCAGCGCUGAAGUCUCCUUUCUUCCUCCCAUCUGGAAGAACAUCAAGAUAUC,0.326

# A few entries again (set 2):
Strand,fluorescence intensity [a.u.]
CGTCCTAGTGATTGGCCAGTGGGTGCCATGAGGAAG,6420
ACCATTGTAGTTATCAACGTGAGCCATAATAGGTTC,9820
TAAGTGAGATGGAGTGGCGTGGAACTGCAGGCTGGT,5080
GTCTTGTCTCATTGACCTGTGGGTGTCCCCACTTCA,5250
GTTTCTGATGACCATCACGTGAAGAATTTGATGTCC,14400
GTCAAACTCCAAAGACACGTGCTCCCCTCGGCACCA,18700
ACAAACTTTTAAAGCTTCGTGCTTTGGATCAACGAA,7320
